Assay results collected from several papers.
Cell line: T47D

Structure (SMILES) = Cc1ccc([N+](=O)[O-])cc1S(=O)(=O)N(C)/N=C/c1cnc2ccc(Br)cn12; assay = cell growth or viability; endpoint = IC50; result = > 10 µM
Structure (SMILES) = O=C(Nc1nnc2c1c(-c1ccc(Cl)cc1)nc1sc(=Cc3ccco3)c(=O)n12)c1ccccc1 (mixture of isomers); assay = SRB; setting = 10 µM, NCI60 single-dose screen; how to read = baseline: untreated; endpoint = cell growth; result = 48.8%
Structure (SMILES) = CC(C)=CC1OC(C)(C)C2C=C3C(=O)C(Cl)=CC(O)C3C3C(O)C4OC4C(=O)C132 (centres unmarked); assay = cell growth or viability, MTS; endpoint = IC50; result = 9.56 µM
Structure (SMILES) = C1=[N+]2CCCC[N+]3=Cc4ccc5[n]4[Au-]23[n]2c1ccc2-c1nc2ccccc2nc1-5.F[P-](F)(F)(F)(F)F; assay = NCI60 five-dose screen; endpoint = TGI; result = 4.59 -log M
Structure (SMILES) = CCCC(CCC)C(=O)OCc1cn(-c2cc3ccccc3oc2=O)nn1; assay = NCI60 single-dose screen; setting = 10 µM; endpoint = growth percentage; result = 98.7%
Structure (SMILES) = COc1cccc2c1cc1c3c(cc4c(c32)OCO4)[C@@H]2c3c4c5c(cc6c(c5c5cccc(OC)c35)OCO6)CCN4[C@@H]2N1C (racemic); assay = cytotoxicity, MTT; setting = 50 µg/mL, 48 h; endpoint = inhibition; result = < 50%
Structure (SMILES) = N#CSCCCCCCOc1ccc2c(-c3ccccc3)cc(=O)oc2c1; assay = cell growth or viability, SRB; endpoint = GI50; result = 44 µM
Structure (SMILES) = CNS(=O)(=O)Nc1nccc(Cc2c(C)c3ccc(Oc4ncccc4F)cc3oc2=O)c1F; assay = cell viability; setting = 7 days; endpoint = IC50; result = > 1 µM
Structure (SMILES) = N#C[Se]CCCCCCOc1ccc2c(-c3ccccc3)cc(=O)oc2c1; assay = cell growth or viability, SRB; endpoint = GI50; result = 11 µM
Structure (SMILES) = CN(C)CCN1CCN(c2ccc3nc(-c4ccc5nc(-c6ccc(C(F)(F)F)cc6)[nH]c5c4)[nH]c3c2)CC1; assay = SRB; setting = 10 µM, 48 h; endpoint = growth percent; result = 61.4%
Structure (SMILES) = COC(=O)N1c2ccc3c(nc(Cc4ccccc4)n3[C@@H]3CCC[C@@H](C(=O)O)C3)c2CC[C@@H]1C; assay = cell growth or viability, ATP luminescence; setting = 10 days; endpoint = IC50; result = 2.16 µM
